Measured values collected from several papers.
A part holds a random share of what one study measured.
Chain of UniProt P35372 (whole entry, looked up): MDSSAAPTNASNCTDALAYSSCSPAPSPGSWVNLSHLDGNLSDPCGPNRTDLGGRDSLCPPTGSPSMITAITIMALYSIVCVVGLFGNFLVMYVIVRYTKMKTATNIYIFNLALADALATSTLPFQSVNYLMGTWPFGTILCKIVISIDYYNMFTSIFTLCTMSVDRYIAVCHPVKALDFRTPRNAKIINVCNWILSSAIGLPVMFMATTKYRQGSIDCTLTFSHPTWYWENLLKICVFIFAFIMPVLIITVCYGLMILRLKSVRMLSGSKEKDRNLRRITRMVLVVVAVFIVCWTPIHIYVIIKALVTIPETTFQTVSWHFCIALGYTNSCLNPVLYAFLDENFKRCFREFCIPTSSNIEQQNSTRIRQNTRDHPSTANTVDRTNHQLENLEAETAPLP
Chain of UniProt P08172 (whole entry, looked up): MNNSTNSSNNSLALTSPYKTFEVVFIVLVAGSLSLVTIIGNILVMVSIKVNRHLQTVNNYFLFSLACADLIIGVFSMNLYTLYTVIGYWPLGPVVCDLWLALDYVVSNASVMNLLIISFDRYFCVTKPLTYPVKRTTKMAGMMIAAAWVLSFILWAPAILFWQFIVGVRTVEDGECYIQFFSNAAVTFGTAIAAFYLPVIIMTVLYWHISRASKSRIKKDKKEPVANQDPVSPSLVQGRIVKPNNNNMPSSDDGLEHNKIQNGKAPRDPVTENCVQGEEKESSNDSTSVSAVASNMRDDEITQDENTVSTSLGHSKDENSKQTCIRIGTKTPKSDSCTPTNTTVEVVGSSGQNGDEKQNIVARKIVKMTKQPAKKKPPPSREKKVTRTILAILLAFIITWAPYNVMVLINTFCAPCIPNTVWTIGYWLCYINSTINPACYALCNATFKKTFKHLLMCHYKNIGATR
Chain of UniProt Q01959 (whole entry, looked up): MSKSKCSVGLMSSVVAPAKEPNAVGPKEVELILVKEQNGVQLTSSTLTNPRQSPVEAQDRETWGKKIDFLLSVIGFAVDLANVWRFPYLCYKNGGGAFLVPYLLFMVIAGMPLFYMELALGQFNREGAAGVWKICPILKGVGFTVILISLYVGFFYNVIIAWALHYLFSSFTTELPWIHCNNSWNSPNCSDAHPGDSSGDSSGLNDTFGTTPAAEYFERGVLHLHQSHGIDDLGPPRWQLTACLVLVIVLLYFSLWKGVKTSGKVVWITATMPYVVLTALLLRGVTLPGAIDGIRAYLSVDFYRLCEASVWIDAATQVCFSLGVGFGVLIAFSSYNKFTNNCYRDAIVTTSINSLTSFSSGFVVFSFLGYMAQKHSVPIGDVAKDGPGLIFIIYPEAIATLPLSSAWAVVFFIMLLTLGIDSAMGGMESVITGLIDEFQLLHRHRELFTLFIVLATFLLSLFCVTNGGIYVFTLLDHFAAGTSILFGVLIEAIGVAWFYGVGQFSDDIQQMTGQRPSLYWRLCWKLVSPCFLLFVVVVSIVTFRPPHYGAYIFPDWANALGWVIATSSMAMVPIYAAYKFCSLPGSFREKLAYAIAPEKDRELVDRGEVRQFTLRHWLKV
Chain of UniProt Q9H3N8 (whole entry, looked up): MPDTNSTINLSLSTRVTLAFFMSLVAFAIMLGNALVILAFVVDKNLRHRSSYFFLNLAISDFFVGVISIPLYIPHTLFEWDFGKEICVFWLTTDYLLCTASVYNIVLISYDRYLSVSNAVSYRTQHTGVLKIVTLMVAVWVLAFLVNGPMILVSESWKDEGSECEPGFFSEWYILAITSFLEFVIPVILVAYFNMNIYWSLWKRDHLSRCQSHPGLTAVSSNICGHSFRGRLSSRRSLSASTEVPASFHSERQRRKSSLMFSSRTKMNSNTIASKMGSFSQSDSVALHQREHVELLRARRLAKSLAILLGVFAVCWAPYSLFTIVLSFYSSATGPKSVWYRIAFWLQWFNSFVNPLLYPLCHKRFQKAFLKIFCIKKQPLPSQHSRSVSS
Chain of UniProt P21918 (whole entry, looked up): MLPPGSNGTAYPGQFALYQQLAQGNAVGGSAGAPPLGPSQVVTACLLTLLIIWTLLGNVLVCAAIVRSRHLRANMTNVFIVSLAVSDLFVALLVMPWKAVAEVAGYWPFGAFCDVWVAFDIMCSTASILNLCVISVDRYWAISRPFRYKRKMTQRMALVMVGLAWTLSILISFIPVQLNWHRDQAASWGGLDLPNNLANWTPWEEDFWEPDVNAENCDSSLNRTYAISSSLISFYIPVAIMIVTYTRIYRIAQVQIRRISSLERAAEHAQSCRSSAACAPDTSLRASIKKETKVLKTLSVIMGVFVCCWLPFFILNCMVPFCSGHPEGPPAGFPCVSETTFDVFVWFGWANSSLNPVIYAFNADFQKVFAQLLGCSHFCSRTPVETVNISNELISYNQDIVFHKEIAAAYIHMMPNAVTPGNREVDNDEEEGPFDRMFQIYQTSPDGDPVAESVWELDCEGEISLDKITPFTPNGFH
Chain of UniProt P20309 (whole entry, looked up): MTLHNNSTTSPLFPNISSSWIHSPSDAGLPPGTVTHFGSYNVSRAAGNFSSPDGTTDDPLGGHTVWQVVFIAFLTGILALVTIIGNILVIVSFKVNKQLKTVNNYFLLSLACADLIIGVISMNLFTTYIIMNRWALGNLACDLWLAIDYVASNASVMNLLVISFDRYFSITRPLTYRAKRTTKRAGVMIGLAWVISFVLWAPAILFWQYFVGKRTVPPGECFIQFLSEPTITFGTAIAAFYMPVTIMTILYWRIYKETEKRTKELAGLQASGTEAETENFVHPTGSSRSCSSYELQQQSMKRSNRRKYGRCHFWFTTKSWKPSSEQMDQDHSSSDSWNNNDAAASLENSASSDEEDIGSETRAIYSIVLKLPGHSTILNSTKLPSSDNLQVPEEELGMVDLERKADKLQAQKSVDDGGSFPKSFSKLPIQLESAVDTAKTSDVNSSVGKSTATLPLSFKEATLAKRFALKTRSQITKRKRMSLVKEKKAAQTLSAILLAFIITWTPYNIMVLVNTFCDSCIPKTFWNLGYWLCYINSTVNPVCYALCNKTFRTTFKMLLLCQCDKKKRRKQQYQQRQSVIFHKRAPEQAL
Chain of UniProt P21728 (whole entry, looked up): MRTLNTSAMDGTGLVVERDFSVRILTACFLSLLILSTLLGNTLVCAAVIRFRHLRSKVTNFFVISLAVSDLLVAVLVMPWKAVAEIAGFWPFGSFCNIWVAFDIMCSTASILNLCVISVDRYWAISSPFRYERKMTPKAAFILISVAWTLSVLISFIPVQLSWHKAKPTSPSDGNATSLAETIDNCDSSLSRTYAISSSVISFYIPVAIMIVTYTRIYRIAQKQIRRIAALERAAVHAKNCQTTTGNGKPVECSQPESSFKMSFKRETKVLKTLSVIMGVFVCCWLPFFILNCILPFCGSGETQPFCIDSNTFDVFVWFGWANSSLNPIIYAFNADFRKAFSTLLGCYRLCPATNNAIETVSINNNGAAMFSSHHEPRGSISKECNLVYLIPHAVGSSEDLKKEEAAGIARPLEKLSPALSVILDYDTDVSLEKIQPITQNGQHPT
Chain of UniProt P41145 (whole entry, looked up): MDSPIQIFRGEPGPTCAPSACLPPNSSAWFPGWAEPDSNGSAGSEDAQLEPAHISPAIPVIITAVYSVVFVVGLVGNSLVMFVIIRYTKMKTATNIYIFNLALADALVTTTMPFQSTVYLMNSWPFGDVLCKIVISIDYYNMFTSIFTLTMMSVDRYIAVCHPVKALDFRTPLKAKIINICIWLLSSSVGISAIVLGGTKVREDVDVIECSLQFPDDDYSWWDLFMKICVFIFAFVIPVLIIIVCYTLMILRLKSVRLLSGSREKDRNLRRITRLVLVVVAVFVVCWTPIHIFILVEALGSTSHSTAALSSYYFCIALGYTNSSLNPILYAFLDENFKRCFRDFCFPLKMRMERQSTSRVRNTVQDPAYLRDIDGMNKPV
Chain of UniProt P23975 (whole entry, looked up): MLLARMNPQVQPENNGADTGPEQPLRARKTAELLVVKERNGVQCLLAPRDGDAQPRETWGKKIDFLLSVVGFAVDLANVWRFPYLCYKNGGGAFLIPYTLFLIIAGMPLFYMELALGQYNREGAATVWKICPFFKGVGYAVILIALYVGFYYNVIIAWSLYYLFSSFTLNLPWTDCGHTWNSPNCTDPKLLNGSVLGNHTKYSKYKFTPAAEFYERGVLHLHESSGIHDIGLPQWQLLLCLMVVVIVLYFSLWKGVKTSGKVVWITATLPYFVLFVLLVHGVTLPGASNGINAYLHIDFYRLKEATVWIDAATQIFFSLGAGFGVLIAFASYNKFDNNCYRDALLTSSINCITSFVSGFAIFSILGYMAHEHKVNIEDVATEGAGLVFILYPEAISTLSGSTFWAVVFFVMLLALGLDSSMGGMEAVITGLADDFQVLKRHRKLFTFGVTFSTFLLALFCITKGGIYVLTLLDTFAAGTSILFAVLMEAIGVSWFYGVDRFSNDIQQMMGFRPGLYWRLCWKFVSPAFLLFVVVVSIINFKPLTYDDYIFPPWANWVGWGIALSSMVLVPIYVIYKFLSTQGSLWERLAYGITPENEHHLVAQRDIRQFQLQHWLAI
Chain of UniProt P08173 (whole entry, looked up): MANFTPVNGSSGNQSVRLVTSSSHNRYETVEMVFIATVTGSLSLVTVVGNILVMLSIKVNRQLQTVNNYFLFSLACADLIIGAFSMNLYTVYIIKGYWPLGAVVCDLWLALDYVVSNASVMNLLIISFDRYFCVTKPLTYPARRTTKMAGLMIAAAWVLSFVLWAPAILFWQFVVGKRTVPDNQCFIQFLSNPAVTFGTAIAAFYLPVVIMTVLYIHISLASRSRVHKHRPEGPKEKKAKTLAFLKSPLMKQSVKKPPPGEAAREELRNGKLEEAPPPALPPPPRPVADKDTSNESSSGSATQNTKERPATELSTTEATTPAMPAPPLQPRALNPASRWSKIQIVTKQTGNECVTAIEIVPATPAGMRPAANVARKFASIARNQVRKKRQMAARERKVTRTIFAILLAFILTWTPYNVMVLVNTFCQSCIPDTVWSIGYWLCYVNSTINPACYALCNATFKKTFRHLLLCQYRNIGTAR

Sample 1
Cell line: HaCaT
Tested at: 100 µM
Time: 36 h
| SMILES | viability [%] |
| --- | --- |
| C[N+]12CCC(CC1)C(OC(=O)C(O)(c1ccccc1)c1ccccc1)C2 (stereo not drawn) | 87.7 |
| O=C(O)c1nn(Cc2ccc(Cl)cc2Cl)c2ccccc12 | 97.2 |
| O=C(CCCN1CCC2(CC1)C(=O)NCN2c1ccccc1)c1ccc(F)cc1 | 29.4 |
| CC(C)N(CCNC(=O)CN1CCCC1=O)C(C)C | 81.8 |
| Nc1nc(N)nc(NC2CC2)n1 | 61 |
| C/C=C(\C)C(=O)N[C@@H](c1ccccc1)[C@@H](O)C(=O)O[C@H]1C[C@@]2(O)[C@@H](OC(=O)c3ccccc3)[C@@H]3[C@]4(OC(C)=O)CO[C@@H]4C[C@H](O)[C@@]3(C)C(=O)[C@H](OC(C)=O)C(=C1C)C2(C)C | 84.2 |

Sample 2
Target: chymotrypsin
Read-out: enzyme activity
Mode: inhibitor
Tested at: 10 µM
Setting: with DTT
| SMILES | inhibition |
| --- | --- |
| CC(=O)O/N=C1\C(=O)N(Cc2cc(Cl)ccc2Cl)c2ccc(Cl)cc21 | 2.7% |
| NC[C@H](O)c1ccc(O)c(O)c1 | 2% |
| CC(C)Nc1cccnc1N1CCN(C(=O)c2cc3cc(NS(C)(=O)=O)ccc3[nH]2)CC1.CS(=O)(=O)O | 9.1% |
| CCCCCCCCCCCCCCCCCC[S+](CCC)c1ccccc1C(=O)OCC (stereo not drawn) | 6.5% |
| COC(=O)CC[C@H](NC(=O)[C@H](CC(=O)OC)NC(=O)OCc1ccccc1)C(=O)N[C@H](C(=O)N[C@@H](CC(=O)OC)C(=O)CF)C(C)C | 11.2% |
| O=C(O)[C@@H](S)[C@@H](S)C(=O)O | 8.4% |
| C=C1C(=O)O[C@H]2[C@H]1CC/C(C)=C/CC[C@@]1(C)O[C@@H]21 | -1% |
| COc1ccc(C(=O)n2nc(-c3ccccc3)nc2N)cc1OC | 60.9% |
| CN1CCN(C(=O)c2ccc(-c3ccc4c(C=O)c(O)ccc4c3)s2)CC1 | 9.7% |
| COc1ncc(-c2ccc3nccc(-c4ccnnc4)c3c2)cc1NS(=O)(=O)c1ccc(F)cc1F | 9% |
| CN(C)S(=O)(=O)c1cccc(-n2sc3ccccc3c2=O)c1 | 3.2% |
| COc1cc(-c2ccc(/N=N/c3ccc4c(S(=O)(=O)O)cc(S(=O)(=O)O)c(N)c4c3O)c(OC)c2)ccc1/N=N/c1ccc2c(S(=O)(=O)O)cc(S(=O)(=O)O)c(N)c2c1O | 4.7% |
| O=C(c1cccs1)c1no[n+]([O-])c1C(=O)c1cccs1 | 8.7% |

Sample 3
Structure (SMILES): Cn1cncc1[C@](O)(COc1ccc(C#N)cc1-c1ccc(OC(F)(F)F)cc1)c1ccc(C#N)cc1
Read-out: binding
Technique: radioligand binding
Tested at: 10 µM
| target | inhibition |
| --- | --- |
| Alpha-2C adrenergic receptor (ADRA2C, Homo sapiens, UniProt P18825) | 5% |
| Kappa-type opioid receptor (OPRK1, Homo sapiens, UniProt P41145) | -7.18% |
| Alpha-2B adrenergic receptor (ADRA2B, Homo sapiens, UniProt P18089) | 8.46% |
| Alpha-1D adrenergic receptor (ADRA1D, Homo sapiens, UniProt P25100) | -8.65% |
| Sodium-dependent noradrenaline transporter (SLC6A2, Homo sapiens, UniProt P23975) | 21.7% |
| Muscarinic acetylcholine receptor M3 (CHRM3, Homo sapiens, UniProt P20309) | 23.3% |
| D(1A) dopamine receptor (DRD1, Homo sapiens, UniProt P21728) | 4.35% |
| 5-hydroxytryptamine receptor 3A (HTR3A, Homo sapiens, UniProt P46098) | 17.6% |
| 5-hydroxytryptamine receptor 5A (HTR5A, Homo sapiens, UniProt P47898) | 1.81% |
| Sodium-dependent serotonin transporter (SLC6A4, Homo sapiens, UniProt P31645) | 1.25% |
| D(1B) dopamine receptor (DRD5, Homo sapiens, UniProt P21918) | 4.79% |
| Mu-type opioid receptor (OPRM1, Homo sapiens, UniProt P35372) | 16.4% |
| Histamine H1 receptor (HRH1, Homo sapiens, UniProt P35367) | 88.7% |
| Muscarinic acetylcholine receptor M4 (CHRM4, Homo sapiens, UniProt P08173) | 6.81% |
| Sodium-dependent dopamine transporter (SLC6A3, Homo sapiens, UniProt Q01959) | 9.99% |
| Muscarinic acetylcholine receptor M2 (CHRM2, Homo sapiens, UniProt P08172) | -1.19% |
| Beta-3 adrenergic receptor (ADRB3, Homo sapiens, UniProt P13945) | 32.9% |
| Alpha-1B adrenergic receptor (ADRA1B, Homo sapiens, UniProt P35368) | 16.6% |
| Histamine H4 receptor (HRH4, Homo sapiens, UniProt Q9H3N8) | -6.36% |
| Histamine H2 receptor (HRH2, Homo sapiens, UniProt P25021) | 14.5% |

Sample 4
Organism: Vesicular stomatitis virus
Read-out: pseudovirus infection
Technique: FDA-approved drug library screen
Tested at: concentration not given
Setting: VSV-G control pseudotype
Reference: vehicle
| Structure (SMILES) | GFP-positive cells [%] |
| --- | --- |
| CN(C)CCOC(c1ccc(Cl)cc1)c1ccccn1.O=C(O)/C=C\C(=O)O (stereo not drawn) | 123 |
| O=C(O)C(=O)O.[NH-][C@@H]1CCCC[C@H]1[NH-].[Pt+2] | 102 |
| CN[C@H]1C(=O)N[C@@H]2Cc3ccc(cc3)Oc3cc4cc(c3O[C@@H]3O[C@H](C(=O)O)[C@@H](O)[C@H](O)[C@H]3NC(=O)CCCCCCCCC(C)C)Oc3ccc(cc3Cl)[C@@H](O)[C@@H]3NC(=O)[C@H](NC(=O)[C@@H]4NC(=O)[C@@H](NC2=O)c2cc(cc(O)c2Cl)Oc2cc1ccc2O)c1ccc(O)c(c1)-c1c(O[C@H]2O[C@H](CO)[C@@H](O)[C@H](O)[C@@H]2O)cc(O)cc1[C@@H](C(=O)O)NC3=O | 58.8 |
| Cc1onc(-c2ccccc2Cl)c1C(=O)N[C@@H]1C(=O)N2[C@@H]1SC(C)(C)[C@@H]2C(=O)[O-].O.[Na+] | 88.4 |
| C=CCN1CC[C@]23c4c5ccc(O)c4O[C@H]2[C@@H](OCCOCCOCCOCCOCCOCCOCCOC)CC[C@@]3(O)[C@H]1C5.O=C(O)C(=O)O | 114 |
| Cl.NC(N)=NCCC[C@H](N)C(=O)O | 117 |

Some of these lines once more (sample 3):
| target | inhibition |
| --- | --- |
| Kappa-type opioid receptor (OPRK1, Homo sapiens, UniProt P41145) | -7.18% |
| Alpha-2B adrenergic receptor (ADRA2B, Homo sapiens, UniProt P18089) | 8.46% |
| Alpha-1D adrenergic receptor (ADRA1D, Homo sapiens, UniProt P25100) | -8.65% |
| Sodium-dependent noradrenaline transporter (SLC6A2, Homo sapiens, UniProt P23975) | 21.7% |
